Experimental data of several laboratories.
A part holds a random share of what one study measured. Positions count from the first letter of the parent shown.

Series 1
Target: Sal-like protein 4, full length isoform A (SALL4, Homo sapiens, UniProt Q9UJQ4, residues 1-1053)
Chain of UniProt Q9UJQ4 (whole entry, looked up): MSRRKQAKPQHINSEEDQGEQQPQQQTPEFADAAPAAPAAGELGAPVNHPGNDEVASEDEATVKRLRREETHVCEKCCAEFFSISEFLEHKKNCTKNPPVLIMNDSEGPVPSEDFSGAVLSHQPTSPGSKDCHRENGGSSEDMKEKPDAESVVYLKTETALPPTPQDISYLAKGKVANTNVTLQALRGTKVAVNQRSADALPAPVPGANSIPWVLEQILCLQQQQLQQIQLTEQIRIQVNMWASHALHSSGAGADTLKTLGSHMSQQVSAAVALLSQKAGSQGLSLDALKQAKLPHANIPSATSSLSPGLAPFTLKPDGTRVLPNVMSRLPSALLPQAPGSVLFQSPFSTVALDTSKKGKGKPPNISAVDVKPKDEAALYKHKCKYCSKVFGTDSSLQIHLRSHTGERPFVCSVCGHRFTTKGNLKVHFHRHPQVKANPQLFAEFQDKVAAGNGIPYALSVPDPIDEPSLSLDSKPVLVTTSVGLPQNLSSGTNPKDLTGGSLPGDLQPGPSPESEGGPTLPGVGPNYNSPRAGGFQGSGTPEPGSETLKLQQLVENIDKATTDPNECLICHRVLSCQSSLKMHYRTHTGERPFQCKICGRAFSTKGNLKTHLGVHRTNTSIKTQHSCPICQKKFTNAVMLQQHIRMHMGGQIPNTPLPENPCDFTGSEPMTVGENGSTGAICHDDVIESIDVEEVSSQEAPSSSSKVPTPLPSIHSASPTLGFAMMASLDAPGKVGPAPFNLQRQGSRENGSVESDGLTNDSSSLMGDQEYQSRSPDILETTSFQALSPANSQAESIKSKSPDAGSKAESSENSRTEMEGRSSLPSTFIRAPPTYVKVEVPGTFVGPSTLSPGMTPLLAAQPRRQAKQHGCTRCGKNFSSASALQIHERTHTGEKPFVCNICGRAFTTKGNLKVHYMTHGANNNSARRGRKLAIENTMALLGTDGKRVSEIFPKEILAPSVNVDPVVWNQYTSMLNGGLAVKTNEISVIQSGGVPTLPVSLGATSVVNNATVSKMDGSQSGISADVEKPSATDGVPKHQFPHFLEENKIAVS
Technique: universal PBM
Molecule type: double-stranded DNA, one strand shown
Sample: in vitro
Concentration: 600 nM
Setting: 8-mer, flanks averaged, mean of replicates
Reading: higher = stronger binding
Strand | E-score
CCGCGTCC | -0.26
AGTAGCTA | 0.126
ACTCCTCC | -0.0841
ACTACCTA | 0.109
GTCTTATA | 0.227
GCGCACCA | -0.154
AATAATTC | 0.422
CACCAGTC | -0.387

Series 2
Target: RING finger protein unkempt homolog, zinc fingers 1-6, GST-SBP tag (UNK, Homo sapiens, UniProt Q9C0B0, residues 30-357)
Technique: RNA Bind-n-Seq
Molecule type: RNA
Sample: in vitro
Concentration: not given
Setting: RNA with constant flanks, ends assumed
Reference: input RNA pool
Reading: higher = stronger binding
All sequences stand within: GGGAGUUCUACAGUCCGACGAUC … CAACAGAGGAUUGAGCAUCA
Construct (chain): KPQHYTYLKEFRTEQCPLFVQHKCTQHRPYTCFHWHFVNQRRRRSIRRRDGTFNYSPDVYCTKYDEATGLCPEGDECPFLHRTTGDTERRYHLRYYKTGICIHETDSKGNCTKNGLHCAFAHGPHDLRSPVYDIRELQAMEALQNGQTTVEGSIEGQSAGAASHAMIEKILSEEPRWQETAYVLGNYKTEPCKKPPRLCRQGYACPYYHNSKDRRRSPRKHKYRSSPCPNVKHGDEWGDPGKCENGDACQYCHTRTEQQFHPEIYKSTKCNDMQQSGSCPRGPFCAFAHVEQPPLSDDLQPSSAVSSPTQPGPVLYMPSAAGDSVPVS
Strand | bound/input enrichment
GGAGGAGGGAUACGUUUCCACGAUAACUUCGGCUUUGAUGACCUAGUACGAGAUUUCAACCGCAUCUUCAGCGAUAUGGGGGCCUGGACCUUGCCUUCCCAUCCUCCUGAACUUCCAGGU | 0.229 ratio
GAAAGGGACGGUGGGACCAGUUACUCUCCACAAGAAAACUCACACAACCACAGUGCACUUCACCGUUCAAAUUCACAUUCUUCUAAUCCAAGCAAUAAUCCAAGCAAAACUUCAGAUGCA | 0.268 ratio
UAGCAUGGAUUCUUUUUCCAUUUAUUGAAUGUGAGGGAUUUCGAUUGUUUCCAGUUCUUUCCGUUCAGUUUGUAUUGAAUACAUAUAACAAUGUGGUUUCUUACUGUUGGUGAUGGGUCA | 0.506 ratio
AUUGGGACCAGCUCUCUGAAUAGAAAUAGUAGUAAAAAAACCAAGCAAAAUGAUAUUUGUACCGAAAAAACAGAAGCUAAAUCAUGUAAAGUAAACGCUGCCAGUGUUCCAGGCCCUAAA | 10.7 ratio
GAUUGAUCUCUGGGCUGGUGAACAUAAUCUCUGUCCCAGUCAGAAAAGGAGAGAGGAAAUCCGCAGAGCGAUUGGUGGAGAAUGAUAUCUGUCAAAAGAAACACUUGGAGAGCACUGAGU | 0.235 ratio
CCUACUAUAAACAACUCAGGGCAGUAUUCUCGAUAUCCUUACAGUAACCUAAAUCAGGGAUCCGUUAACAAUACAGGGAUGAAUCAAAAUUUAGGCCUUACAAAUAAUACUCCAAUGAAU | 1.11 ratio
AGCCCAAAUCAUGCGGUGGUGCACGGCAACCUGGCUUGUGUGUACUACGAGCAAGGCCUAACCGACCUGGCCAUUGAUACCUACAGGAGAGCUAUCGAACUGCAACCCCAUUUCCCCGAU | 0.0567 ratio
CAGCCAGGGAUUUUUGGGUUUUUUGUUUUGGGUUGAGUCUGGGUGUUAUUUUUGUUUGUUUCCGGCAUAUAAUUCCCGAUGUAAUUUGAUUUAAAAGUAUAACUGACUUGCUUUUAAAUC | 0.37 ratio

Series 3
Target: OGT, full length, His-tagged (human)
Technique: phage display, sequencing
Sample: in vitro
Concentration: 1 µg OGT
Setting: single substitutions, 15-mer displayed peptide, unchanged parent 19.6
Reference: input library
Reading: higher = stronger binding
Starting sequence: peptide; TAPFYPPAYQIQVFK; partner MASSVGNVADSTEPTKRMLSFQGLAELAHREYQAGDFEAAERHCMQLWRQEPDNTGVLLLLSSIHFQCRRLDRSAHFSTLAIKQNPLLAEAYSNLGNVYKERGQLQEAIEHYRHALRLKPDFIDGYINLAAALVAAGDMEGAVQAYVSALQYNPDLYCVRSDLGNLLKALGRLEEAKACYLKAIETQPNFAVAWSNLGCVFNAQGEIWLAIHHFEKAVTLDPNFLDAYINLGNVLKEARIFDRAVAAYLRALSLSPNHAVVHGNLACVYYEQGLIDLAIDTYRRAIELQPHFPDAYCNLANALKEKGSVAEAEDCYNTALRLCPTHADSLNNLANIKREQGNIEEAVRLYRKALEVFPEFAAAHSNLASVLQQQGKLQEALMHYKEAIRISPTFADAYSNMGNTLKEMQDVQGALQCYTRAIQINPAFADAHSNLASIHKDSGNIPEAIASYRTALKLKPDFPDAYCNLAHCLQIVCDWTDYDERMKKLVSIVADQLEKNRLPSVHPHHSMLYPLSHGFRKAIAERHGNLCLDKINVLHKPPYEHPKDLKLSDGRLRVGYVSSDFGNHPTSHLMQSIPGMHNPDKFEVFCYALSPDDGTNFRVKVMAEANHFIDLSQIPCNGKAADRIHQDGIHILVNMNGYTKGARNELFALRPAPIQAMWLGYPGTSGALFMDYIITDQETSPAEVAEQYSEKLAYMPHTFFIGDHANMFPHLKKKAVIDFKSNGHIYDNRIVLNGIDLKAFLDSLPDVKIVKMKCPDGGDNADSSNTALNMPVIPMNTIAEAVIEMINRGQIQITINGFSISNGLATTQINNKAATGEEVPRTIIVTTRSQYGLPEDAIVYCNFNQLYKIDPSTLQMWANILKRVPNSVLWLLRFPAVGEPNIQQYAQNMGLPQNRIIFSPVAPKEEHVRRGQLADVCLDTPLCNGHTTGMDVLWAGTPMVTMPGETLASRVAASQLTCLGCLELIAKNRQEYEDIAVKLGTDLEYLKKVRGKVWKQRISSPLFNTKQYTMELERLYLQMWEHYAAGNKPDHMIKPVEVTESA
Change | fold enrichment [fold]
TAPFYPPAYQIRVFK [Q12R] | 12.3
TASFYPPAYQIQVFK [P3S] | 12.7
TGPFYPPAYQIQVFK [A2G] | 20.6
TAPFYPPAYQIEVFK [Q12E] | 18
TAPFYPPAYQIQLFK [V13L] | 17.4
TAPFYKPAYQIQVFK [P6K] | 1.15
TAPFYPPAYQIQVFV [K15V] | 9.61
TVPFYPPAYQIQVFK [A2V] | 18.6

Single results of other studies
Starting sequence: viral docking peptide; KGVKRKLFAEDSS; partner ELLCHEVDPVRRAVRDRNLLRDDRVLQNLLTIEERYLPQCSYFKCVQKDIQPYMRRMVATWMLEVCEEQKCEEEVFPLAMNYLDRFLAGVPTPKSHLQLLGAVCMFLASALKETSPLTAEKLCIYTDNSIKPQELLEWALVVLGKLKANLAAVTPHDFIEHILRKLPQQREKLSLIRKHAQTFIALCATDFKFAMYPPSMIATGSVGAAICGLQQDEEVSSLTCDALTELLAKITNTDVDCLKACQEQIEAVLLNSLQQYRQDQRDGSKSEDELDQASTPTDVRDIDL
Change | target | assay | test system | conditions | scale | endpoint | value
L7D | CCND2, cyclin fold, Cln2 fusion (human) | yeast growth competition, sequencing | yeast | weak parent motif | reference: not given, higher = stronger binding | normalised enrichment score | -0.067

Some of these lines once more (series 3):
Change | fold enrichment [fold]
TAPFYPPAYQIQVFV [K15V] | 9.61
TVPFYPPAYQIQVFK [A2V] | 18.6
